Experimental data pooled from the literature.
Each numbered part is a random draw from the data of one study; scales do not carry over between parts. Changes are numbered by the printed parent chain.
Chain of UniProt P62837 (whole entry, looked up): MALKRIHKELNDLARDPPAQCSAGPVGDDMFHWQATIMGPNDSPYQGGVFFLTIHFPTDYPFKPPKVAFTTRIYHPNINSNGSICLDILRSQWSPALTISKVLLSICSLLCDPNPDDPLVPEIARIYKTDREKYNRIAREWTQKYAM

Sample 1
Target: Phosphate system positive regulatory protein PHO4, full length, GST-tagged (PHO4, Saccharomyces cerevisiae, UniProt P07270, residues 1-312)
Method: competition protein-binding microarray
Molecule type: double-stranded DNA, one strand shown
Sample: in vitro
Concentration: 2 µM
Notes: whole 60-bp probe, lowest competitor level
With: Cbf1 competitor, 0.05 µM
Reading: higher = stronger binding
Measurement: fluorescence intensity
Construct (chain): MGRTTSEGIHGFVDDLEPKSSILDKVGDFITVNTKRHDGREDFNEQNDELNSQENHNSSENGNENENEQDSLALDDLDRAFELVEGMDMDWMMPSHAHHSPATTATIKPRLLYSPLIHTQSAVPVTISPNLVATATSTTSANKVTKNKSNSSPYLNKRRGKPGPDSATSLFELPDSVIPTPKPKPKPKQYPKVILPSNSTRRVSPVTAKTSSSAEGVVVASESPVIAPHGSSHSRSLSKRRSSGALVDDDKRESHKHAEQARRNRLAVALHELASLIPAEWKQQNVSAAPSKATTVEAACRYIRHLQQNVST
AATGCTTGAAAAATTCTCGTGCAAACGGTCCCCTACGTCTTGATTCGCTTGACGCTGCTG: 6600 a.u.
CGTCCTAGTGATTTTCACGTGATGTCCATGAGGAAGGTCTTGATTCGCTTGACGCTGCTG: 11800 a.u.
CTAACGAAGGTTTTTCACGTGAGGTACAAGCCAAGTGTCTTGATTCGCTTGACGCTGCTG: 9550 a.u.
TGCGCGCCCGCGACCCACGTGACGGTGATTCATTCGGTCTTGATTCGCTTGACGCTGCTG: 16200 a.u.
TCTCCTAGGGGCAGTCTCGTGCTAATTAGCAGCTTTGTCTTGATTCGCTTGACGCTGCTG: 6670 a.u.
CGTCCTAGTGATTCACACGTGTTTTCCATGAGGAAGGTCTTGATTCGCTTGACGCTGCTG: 17700 a.u.
TGCGCAACAACTTGCCCCGTGGGTGTATGTCTAGAAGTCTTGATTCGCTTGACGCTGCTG: 10700 a.u.
TGCTGGATTAGGGAACACGTGGAAAGGGCTAGACCAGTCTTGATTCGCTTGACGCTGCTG: 14500 a.u.

Sample 2
Target: CCNB1, cyclin fold, Cln2 fusion (human)
Method: yeast growth competition, sequencing
Sample: yeast
Notes: strong parent motif
Baseline: not given
Reading: higher = stronger binding
Measurement: normalised enrichment score
Parent: viral docking peptide; TSVRRALFTGGSD; partner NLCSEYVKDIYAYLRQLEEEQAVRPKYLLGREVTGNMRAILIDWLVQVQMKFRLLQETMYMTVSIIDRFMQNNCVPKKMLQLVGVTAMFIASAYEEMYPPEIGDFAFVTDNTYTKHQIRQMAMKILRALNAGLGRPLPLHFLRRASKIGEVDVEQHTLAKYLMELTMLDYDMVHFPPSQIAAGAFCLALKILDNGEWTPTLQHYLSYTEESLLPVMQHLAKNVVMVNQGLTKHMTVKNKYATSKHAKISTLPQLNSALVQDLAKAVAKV
TSVHRALFTGGSD [R4H]: 0.0407
TSVTRALFTGGSD [R4T]: 1.05
TSPRRALFTGGSD [V3P]: 0.734
TSVRRMLFTGGSD [A6M]: 0.347
TSVRRALFTPGSD [G10P]: 1.72
TSVRRALFTGPSD [G11P]: 2.61
TSVRRALTTGGSD [F8T]: -0.0695
TSVRTALFTGGSD [R5T]: 0.313
TSVSRALFTGGSD [R4S]: 1.33
TSVRRAWFTGGSD [L7W]: 0.459
TRVRRALFTGGSD [S2R]: 1.67
TYVRRALFTGGSD [S2Y]: 1.15
TSVRRALFCGGSD [T9C]: 1.78
TSVRHALFTGGSD [R5H]: 0.608
TSSRRALFTGGSD [V3S]: -0.0646
TSVNRALFTGGSD [R4N]: 1.54
TSVRSALFTGGSD [R5S]: 0.152
TSVRRALFAGGSD [T9A]: 1.37

Sample 3
Target: HLA class I histocompatibility antigen, A alpha chain, allele A*25:01 (Homo sapiens, UniProt P04439)
Read-out: peptide-MHC binding
Molecule type: peptide
Concentration: concentration not given
Measurement: binding
VALFSSCPVAY: inactive
GSFRKICGF: inactive
LTMNLVSDI: inactive
EVIPYTPAM: active
SIPFGLMSA: inactive

Sample 4
Target: Ras GTPase-activating protein-binding protein 1, full length (G3BP1, Homo sapiens, UniProt Q13283)
Chain of UniProt Q13283 (whole entry, looked up): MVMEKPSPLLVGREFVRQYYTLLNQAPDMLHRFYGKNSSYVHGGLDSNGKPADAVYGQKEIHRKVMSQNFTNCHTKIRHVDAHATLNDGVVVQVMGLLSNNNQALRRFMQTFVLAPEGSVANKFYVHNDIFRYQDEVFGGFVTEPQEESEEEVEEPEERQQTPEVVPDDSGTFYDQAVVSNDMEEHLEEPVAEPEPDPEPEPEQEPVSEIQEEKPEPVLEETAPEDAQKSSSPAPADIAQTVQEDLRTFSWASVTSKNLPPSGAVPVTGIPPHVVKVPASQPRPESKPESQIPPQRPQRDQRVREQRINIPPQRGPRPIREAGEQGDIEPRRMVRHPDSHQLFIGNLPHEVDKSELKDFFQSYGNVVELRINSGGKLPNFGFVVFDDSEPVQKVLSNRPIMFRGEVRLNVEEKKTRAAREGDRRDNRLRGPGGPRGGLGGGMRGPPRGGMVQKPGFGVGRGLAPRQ
Method: RNA Bind-n-Seq
Molecule type: RNA
Sample: in vitro
Concentration: 200 nM
Notes: whole 134-nt RNA, ends assumed
With: 150 mM LiCl
Baseline: input library
Reading: higher = stronger binding
Measurement: log2 enrichment
All molecules: 7-deaza-guanosine replaces G
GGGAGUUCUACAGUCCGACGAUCCCUCAAGUCCUGUGCUACACAUCGUAUGUACCGAAUCGGGGCGGGCGGGCGGAAAGUAUUAUGUUACGCCGUUCGGAUCUGCACUUCCAGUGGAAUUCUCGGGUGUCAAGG: -0.272
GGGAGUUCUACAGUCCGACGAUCCUCAAGUCCUGUGCUACACAUCGUAUGUACCGAAUCGGGAGGGGAGGGGAGGGAAAGUAUUAUGUUACGCCGUUCGGAUCUGCACUUCCAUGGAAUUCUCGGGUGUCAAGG: 0.0577
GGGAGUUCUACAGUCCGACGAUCCACAGACAACACGCACCCACACAGACACAGAGGGAAGGGGUUGGGAUGGGGACAGGGUGUACAGCAGGGCGGGGUAGGACCCCAGCCCCUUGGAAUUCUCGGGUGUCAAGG: -0.158
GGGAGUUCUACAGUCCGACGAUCAAGUCCUGUGCUACACAUCGUAUGUACCGAAUCGGAAAAGGGGAAAAGGAAAAGGGAAAGUAUUAUGUUACGCCGUUCGGAUCUGCACUUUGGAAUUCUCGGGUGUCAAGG: -0.228
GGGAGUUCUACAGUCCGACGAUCUCCUGUGCUACACAUCGUAUGUACCGAAUCGGGAAAAAAGGAAAAAAGGGGAAAAAAGGAAAGUAUUAUGUUACGCCGUUCGGAUCUGCAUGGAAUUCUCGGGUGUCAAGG: -0.514
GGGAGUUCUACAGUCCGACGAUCGCAAAAAGUAAAAACAAAUGGAAAUGCUUCGGAUAGUGGCAGGGGUGGGGGUUGCUAAGGAAAGGGUGGGAUGGGAGUGGGUAAAGAGUUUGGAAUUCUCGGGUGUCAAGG: -0.104
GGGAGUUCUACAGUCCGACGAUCAAGUCCUGUGCUACACAUCGUAUGUACCGAAUCGGUUUUUUUGGUUUUUGGAAAGGAAAGUAUUAUGUUACGCCGUUCGGAUCUGCACUUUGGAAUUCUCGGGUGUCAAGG: -0.925
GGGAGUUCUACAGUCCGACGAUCUUCCCCUGGAGGGCGCCUCCAUCCUUGGAGGCCUAGUGCCGUCGGAGAGAGAGCGGGAGCCGCGGACAGAGACGCGUGCGCAAUUCGGAGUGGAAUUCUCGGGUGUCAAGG: -0.471

Other studies, line by line
NPLOC4 (Homo sapiens, UniProt Q8TAT6)
interaction screen (UFD1 (Homo sapiens, UniProt Q92890); cross-linking MS; hits only): cross-linked

KEQLEKHNDICAICYQDMKSAVITPCSHFFHAGCLKKWLYVQETCPLCHCHLKNSSQLP (RNF145 RING domain (UniProt Q96MT1))
lacZ reporter activity (UBE2D2 UBC core domain (UniProt P62837); yeast two-hybrid; yeast; mostly zero background; baseline: not given, higher = stronger interaction): 0

SEPTIN7 (Homo sapiens, UniProt Q16181)
cross-linked residues (SEPTIN8 (Homo sapiens, UniProt Q92599); cross-linking MS; cell fractions; with: DMTMM): K97 to E13

SEC61B (Homo sapiens, UniProt P60468)
interaction screen (LRRC59 (Homo sapiens, UniProt Q96AG4); cross-linking MS; hits only): cross-linked

Excerpt of the above (sample 1):
TGCGCAACAACTTGCCCCGTGGGTGTATGTCTAGAAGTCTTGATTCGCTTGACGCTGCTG: 10700 a.u.
CGTCCTAGTGATTCACACGTGTTTTCCATGAGGAAGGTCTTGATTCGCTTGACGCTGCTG: 17700 a.u.
CTAACGAAGGTTTTTCACGTGAGGTACAAGCCAAGTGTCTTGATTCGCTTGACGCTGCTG: 9550 a.u.
CGTCCTAGTGATTTTCACGTGATGTCCATGAGGAAGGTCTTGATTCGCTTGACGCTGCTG: 11800 a.u.
TGCTGGATTAGGGAACACGTGGAAAGGGCTAGACCAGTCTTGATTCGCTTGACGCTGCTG: 14500 a.u.
AATGCTTGAAAAATTCTCGTGCAAACGGTCCCCTACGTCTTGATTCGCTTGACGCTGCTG: 6600 a.u.
